Published values from different studies.
Lines come from different studies, so protocols differ. “And” joins repeats or separate records; there may be more than shown. ± marks the error that the study gave.
UCHL1: Ubiquitin carboxyl-terminal hydrolase isozyme L1 (UCHL1, Homo sapiens, UniProt P09936)
ADRA2C: Alpha-2C adrenergic receptor (ADRA2C, Homo sapiens, UniProt P18825)
Voltage-dependent P/Q-type calcium channel subunit alpha-1A: Voltage-dependent P/Q-type calcium channel subunit alpha-1A (Homo sapiens, UniProt O00555)
BEST1: BEST1 (Homo sapiens, UniProt O76090)
TOP2A: DNA topoisomerase 2-alpha (TOP2A, Homo sapiens, UniProt P11388)
GUK1: GUK1 (Homo sapiens, UniProt Q16774)
T1: G-quadruplex DNA (Homo sapiens); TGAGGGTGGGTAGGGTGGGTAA

SMILES	target	test	system	setting	scale	measurement	result
CN(C)C(=O)C(CCN1CCC(O)(c2ccc(Cl)cc2)CC1)(c1ccccc1)c1ccccc1	Calcium-activated potassium channel subunit alpha-1, with LRRC26 γ1 subunit (KCNMA1, Homo sapiens, UniProt Q12791)	BK channel conductance, inside-out patch clamp		BKα/γ1, Vm 50 mV, nominally Ca2+-free		Hill coefficient	0.802 ± 0.11
NC(=O)c1ccc[n+]([C@@H]2O[C@H](COP(=O)([O-])OP(=O)(O)OC[C@H]3O[C@@H](n4cnc5c(NCCNC(=O)CCCCCNC(=O)CCCCCNC(=O)CCCC[C@@H]6SC[C@@H]7NC(=O)N[C@@H]76)ncnc54)[C@H](O)[C@@H]3O)[C@@H](O)[C@H]2O)c1	PARP12 (Homo sapiens, UniProt Q9H0J9)	substrate, DELFIA auto-modification				apparent Km	12 µM
C=CCNc1oc(-c2ccc(S(=O)(=O)N3CCC(C)CC3)cc2)nc1C#N	UCHL1	covalent, intact protein LC-MS		12.5 µM		labelling	14%
Nc1ncnc2c1ncn2[C@@H]1O[C@H](COP(=O)(O)CP(=O)(O)OP(=O)(O)O)[C@@H](O)[C@H]1O	P2X purinoceptor 1 (P2RX1, Homo sapiens, UniProt P51575, F188L)	calcium influx		10 nM	baseline: ionomycin response	calcium influx	0% and 2.68% and 3.28%
CCNC(=O)/C=C/c1cccc(Br)c1	SLC6A19 (Homo sapiens, UniProt Q695T7)	inhibitor, FLIPR membrane potential	CHO-BC cells	0.1 µM, unit not given	baseline: no inhibitor	remaining transport activity	0.924
N[C@@H](CCC(=O)O)C(=O)O	glc-2 (Caenorhabditis elegans, UniProt Q17328)	two-electrode voltage clamp	Xenopus laevis oocytes			median current	8.9 µA
O=S(=O)(CC=C(Cl)Cl)N1CCSSCC1	UCHL1	covalent, intact protein LC-MS		12.5 µM		labelling	13.1%
Cc1cc(Oc2ncccc2CN2CCN(c3ccc(F)cc3F)CC2)ccc1-c1c(C)c(=O)[nH]c(=O)n1C	ADRA2C	binding, radioligand binding		together with: [3H]rauwolscine	baseline: Ki alpha2B over Ki alpha2C	selectivity ratio	5
O=C1NCCN1CCN1CCC(c2cn(-c3ccc(F)cc3)c3ccc(Cl)cc23)CC1	Voltage-dependent P/Q-type calcium channel subunit alpha-1A	ion current, antagonist, automated patch clamp				IC30	2.12 µM
COc1ccc2c(c1)-c1c(ssc1=S)C(C)(C)N2C(=O)CSC#N	UCHL1	covalent, intact protein LC-MS		12.5 µM		labelling	10.6%
O=S(=O)(NCC(O)c1cc2ccccc2s1)c1cccc(Cl)c1O (stereo not shown)	malate dehydrogenase	enzyme activity, inhibitor		200 µM, pH 7.0, 1% DMSO, aggregation counter-screen		remaining activity	100%
CC[C@@H]1[C@H](F)C(=O)N[C@@H]1COc1nccc2cc(C(N)=O)c(OC)cc12	TLK2 (Homo sapiens, UniProt Q86UE8)	ATP-site probe binding, ActivX profiling	THP-1 cell lysate	0.2 mM, Lys2 site		inhibition	16.8%
Cc1cc(Oc2ncccc2CN2CCN(c3ccc([N+](=O)[O-])cc3Cl)CC2)ccc1-c1c(C)c(=O)[nH]c(=O)n1C	ADRA2C	binding, radioligand binding		together with: [3H]rauwolscine	baseline: Ki alpha2B over Ki alpha2C	selectivity ratio	4
COc1ccc2cc(CNC(=O)C3(C(=O)O)CC=CC3)ccc2c1	malate dehydrogenase	enzyme activity, inhibitor		200 µM, pH 7.0, 1% DMSO, aggregation counter-screen		remaining activity	95%
COCC(NC(=O)C(C)Cl)c1cccc(C#N)c1 (stereo not shown)	UCHL1	covalent, intact protein LC-MS		12.5 µM		labelling	19%
O=C(O)CCCOc1c2ccoc2cc2oc(=O)ccc12	Kcna3 (Mus musculus, UniProt P16390)	Kv1.3 current, blocker	mouse L929 cells	concentration not given		channel block	inactive
Cc1cn(C2CCN(Cc3cccc(Oc4ccc(Cl)c(Cl)c4)c3)CC2)c(=O)[nH]c1=O	Thymidylate kinase (DTYMK, Homo sapiens, UniProt P23919)	enzyme activity, inhibitor		no inhibition observed		highest concentration tested	> 40 µM
Cc1cc(Oc2ncccc2CN2CCN(c3ccccc3Br)CC2)ccc1-c1c(C)c(=O)[nH]c(=O)n1C	ADRA2C	binding, radioligand binding		together with: [3H]rauwolscine	baseline: Ki alpha2A over Ki alpha2C	selectivity ratio	7
O=C(Nc1ccccc1Oc1nc2ccccc2n2cnnc12)c1cccs1	Catenin beta-1, residues 141-305 (CTNNB1, Homo sapiens, UniProt P35222)	ITC		concentration not given, 25 °C		binding stoichiometry	1.05
CC(C)OCCn1c(=S)[nH]c(=O)c2[nH]ccc21	Myeloperoxidase (MPO, Homo sapiens, UniProt P05164)	H2O2 consumption, inhibitor, H2O2 electrode		0.45 µM, 0.3 s		H2O2 concentration	-0.47 µM
CN1CCN(CCCNc2nc(-c3cccc(-c4nc(NCCCN5CCN(C)CC5)c5ccccc5n4)n3)nc3ccccc23)CC1	T1, G-quadruplex DNA (Homo sapiens)	thiazole orange displacement, competitor, FID		0.25 µM DNA, pH 7.4, 25 °C, KCl 100 mM, together with: thiazole orange 0.50 µM		IC50	0.272 µM
C=CC(=O)N1CCC(COCC(=O)N2CCN(c3nc(-c4cnc(N)nc4C(F)F)nc(N4CCOC[C@@H]4C)n3)CC2)CC1	PDGFRA (Homo sapiens, UniProt P16234)	KINOMEscan		1 µM		remaining binding	86%
O=S(=O)(O)SSS(=O)(=O)O	uncharacterized protein (Pelagibacter ubique, UniProt Q4FMG4)	differential scanning fluorimetry	Candidatus Pelagibacter ubique	in-house screen		thermal shift	5.64 °C
CC(=O)O[C@H]1C(=O)[C@@]2(C)[C@H]([C@H](OC(=O)c3ccccc3)[C@]3(O)C[C@H](OC(=O)[C@H](O)[C@@H](NC(=O)c4ccccc4)c4ccccc4)C(C)=C1C3(C)C)[C@]1(OC(C)=O)CO[C@@H]1C[C@@H]2O	Voltage-dependent P/Q-type calcium channel subunit alpha-1A	ion current, antagonist, automated patch clamp				IC30	> 30 µM
O=[N+]([O-])c1cc(C(F)(F)F)ccc1NCc1ccco1	Endothelial PAS domain-containing protein 1, PAS-B domain (EPAS1, Homo sapiens, UniProt Q99814, N288Q)	binding, ITC, reverse mode				ΔG	-33.7 ± 0.46 kJ/mol
CCS(=O)(=O)N1CC(CC#N)(n2cc(-c3ncnc4[nH]ccc34)cn2)C1	ORM1 (Homo sapiens, UniProt P02763)			together with: Ni2+		change in binding constant	-37%

SMILES	target	test	system	setting	scale	measurement	result
Cc1cc(-c2ccnc3[nH]cc(F)c23)cc(F)c1[C@@]1(O)[C@H](C)CN(C2CCS(=O)(=O)CC2)C[C@@H]1C	LATS1 (Homo sapiens, UniProt O95835)	ATP/ADP probe binding, KiNativ	HEK293T lysate	0.1 µM, Lys1 peptide ALYATKTLR		probe labelling inhibition	8.9%
CCCCCCCC(=O)c1cc(OC)c(OC)c(OC)c1CC(=O)OCC	HNF4A (Homo sapiens, UniProt P41235)	reporter gene, Gal4 hybrid reporter		10 µM	baseline: vehicle	activation	0.84 fold
CCOC(=O)c1[nH]c2cc(Cl)ccc2c1C(C(=O)NC1CCCCC1)N(C=O)Cc1ccc(Cl)cc1 (stereo not shown)	MDM2 (Homo sapiens, UniProt Q00987)	fluorescence polarization				Ki	2.3 µM
O=C(O)c1ccc(O)cc1	BEST1	whole-cell patch clamp	HEK293 transiently expressing channel	concentration not given, membrane potential 100 mV		current density	47.3 pA/pF and 63 pA/pF and 42.3 pA/pF and 42.6 pA/pF and 126 pA/pF and 42.8 pA/pF and 73.9 pA/pF
CC1=C[C@H](O/C=C2/C(=O)O[C@@H]3c4ccccc4C[C@H]23)OC1=O (racemic)	D14, with SMXL7 (Arabidopsis thaliana, UniProt Q9SQR3)	complex formation with SMXL7, agonist, TR-FRET		50 µM, 300 min, unit not given, together with: Arabidopsis SMXL7, D14-mEGFP 100 nM	baseline: control	TR-FRET signal	1.13
O=C(O)c1ccc([N+](=O)[O-])cc1	BEST1	whole-cell patch clamp	HEK293 transiently expressing channel	concentration not given, membrane potential -100 mV		current density	-104 pA/pF and -130 pA/pF and -70 pA/pF and -74.4 pA/pF and -93.6 pA/pF and -44.2 pA/pF and -42.5 pA/pF
O=C(CCl)Nc1nc2c(s1)CCc1ccccc1-2	UCHL1	covalent, intact protein LC-MS		12.5 µM		labelling	14.6%
CC/C=C(\C)C=O	Uncharacterized protein PH0856 (Pyrococcus horikoshii, UniProt O58586)	substrate		pH 7, 50 °C, anaerobic, shaking 300 rpm, together with: NADPH		conversion	36%
Cc1nc(CSc2nc(SCc3ccc(C(C)C)cc3)nc(=O)[nH]2)cs1	TOP2A	decatenation		15.6 µM, replicate 1		decatenated DNA	60.2%
O=C1NCCc2ccc(CNS(=O)(=O)c3cc(Cl)cc(Cl)c3O)cc21	malate dehydrogenase	enzyme activity, inhibitor		200 µM, pH 7.0, 1% DMSO, aggregation counter-screen		remaining activity	81%
Nc1ncnc2c1ncn2[C@@H]1O[C@H](CO[P@](=O)(O)O[P@](=O)(O)O[P@@](=O)(O)S)[C@@H](O)[C@H]1O	GUK1	ITC		molar ratio 1.955		ΔH	-1.9 kJ/mol
O=c1nc(SCc2cc(F)cc(C(F)(F)F)c2)nc(SCc2ccc3sccc3c2)[nH]1	TOP2A	ATPase activity		3.9 µM, together with: ATP 0.05 mM		ATP hydrolysis rate	0.342 µM/min and 0.633 µM/min
Nc1ncnc2c1ncn2[C@@H]1O[C@H](COP(=O)(O)OP(=O)(O)OP(=O)(O)O)[C@@H](O)[C@H]1O	P2X purinoceptor 7 (P2rx7, Rattus norvegicus, UniProt Q64663, Q143A/R125A)	ion current, agonist, two-electrode voltage clamp	Xenopus laevis oocytes	2 µM	baseline: highest concentration response	normalized current	0
Cc1cc(C)c(NC(=O)C(C#N)=Cc2ccccc2)c(C)c1	UCHL1	covalent, intact protein LC-MS		12.5 µM		labelling	17.2%
O=c1nc(SCc2cc(F)cc(C(F)(F)F)c2)nc(SCc2ccc3nc(Cl)ccc3c2)[nH]1	TOP2A	DNA cleavage		15.6 µM, together with: etoposide 50 µM		linear DNA	14.9%
O=C(CCl)Nc1cc(C2CCCC2)nn1-c1ccccc1	UCHL1	covalent, intact protein LC-MS		12.5 µM		labelling	19.3%
Cn1ncc(S(=O)(=O)NCc2ccc(S(=O)(=O)N3CCOCC3)cc2)c1C(=O)O	malate dehydrogenase	enzyme activity, inhibitor		200 µM, pH 7.0, 1% DMSO, aggregation counter-screen		remaining activity	90%
O=C(CCn1c(=O)[nH]c(=O)c2ccccc21)NCCNC(=O)c1cnc2ccccc2c1	TNKS (Homo sapiens, UniProt O95271)	enzyme activity, inhibitor				ligand efficiency	0.48
CCN(C)C(=O)Oc1cccc([C@H](C)N(C)C)c1	Voltage-dependent P/Q-type calcium channel subunit alpha-1A	ion current, antagonist, automated patch clamp				IC30	> 30 µM
CC1=C(/C=C/C(C)=C/C=C/C(C)=C/C=O)C(C)(C)CCC1	Rhodopsin (RHO, Bos taurus, UniProt P02699, I189T)	retinal entry, Trp FRET	lipid bicelles	28 °C, I189T mutant	baseline: wild-type rhodopsin	relative kon	0.73 ± 0.18
CC(C)=CCC/C(C)=C/C=C/C(C)=C/C=C/C(C)=C/C=C/C=C(C)/C=C/C=C(C)/C=C/C=C(\C)CCC=C(C)C	Beta-lactoglobulin (LGB, Bos taurus, UniProt P02754)	fluorescence quenching		303 K		Stern-Volmer quenching constant	5400 ± 1580 L/mol
Nc1nc2c(ncn2[C@@H]2O[C@H](COP(=O)(O)O)[C@@H](O)[C@H]2O)c(=O)[nH]1	GUK1	ITC		concentration not given, together with: 150 mM NaCl		ΔH of binding	-24.3 kJ/mol and -29.3 kJ/mol and -22.2 kJ/mol
COC(=O)C1CC(C(NS(=O)(=O)c2cccc(Cl)c2O)C(=O)OC)C1 (stereo not shown)	malate dehydrogenase	enzyme activity, inhibitor		200 µM, pH 7.0, 1% DMSO, aggregation counter-screen		remaining activity	101%
CCN1CCC[C@H]1CNC(=O)c1c(O)c(Cl)cc(Cl)c1OC	GPR3 (Homo sapiens, UniProt P46089)	β-arrestin recruitment, TANGO luminescence		concentration not given	baseline: basal luminescence	log2 fold change	-0.096
COc1ccc(C(=O)CCl)cc1Cl	UCHL1	covalent, intact protein LC-MS		12.5 µM		labelling	16.9%
NCCCS(=O)(=O)O	SLC6A6 (Homo sapiens, UniProt P31641, Y138A)	binding, microscale thermophoresis		37.6 nM, fitted curve	higher = more binding	fraction bound	0.000341

Excerpt of the above:
SMILES	target	test	system	setting	scale	measurement	result
CCN1CCC[C@H]1CNC(=O)c1c(O)c(Cl)cc(Cl)c1OC	GPR3 (Homo sapiens, UniProt P46089)	β-arrestin recruitment, TANGO luminescence		concentration not given	baseline: basal luminescence	log2 fold change	-0.096
O=S(=O)(CC=C(Cl)Cl)N1CCSSCC1	UCHL1	covalent, intact protein LC-MS		12.5 µM		labelling	13.1%
Cc1cc(Oc2ncccc2CN2CCN(c3ccc([N+](=O)[O-])cc3Cl)CC2)ccc1-c1c(C)c(=O)[nH]c(=O)n1C	ADRA2C	binding, radioligand binding		together with: [3H]rauwolscine	baseline: Ki alpha2B over Ki alpha2C	selectivity ratio	4
